Assay results pooled from the literature.
Parts stem from different laboratories: compare values within a part only. Changes are numbered by the printed parent chain.

Study 1
Target: Histone acetyltransferase KAT6A, winged helix 1, GST fusion (KAT6A, Homo sapiens, UniProt Q92794, residues 1-85)
Method: protein binding microarray
Molecule type: double-stranded DNA, one strand shown
Sample: in vitro
Tested at: not given
Notes: 8-mer, flanks averaged, mean of 2 arrays, mostly near background
Baseline: not given
Direction: higher = stronger binding
Quantity: E-score
Residues (chain): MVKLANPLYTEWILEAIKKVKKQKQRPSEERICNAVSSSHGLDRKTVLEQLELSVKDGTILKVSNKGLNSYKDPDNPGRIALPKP
CGCAAGTC: 0.0383
CACCCTTA: -0.179
AGACCAAG: -0.0682
GGTGAGGA: -0.0883
CGCTACGA: 0.163
GGGAGTAC: 0.136
GCGGACAA: 0.115
CGCCTGCC: 0.214
CTGGGGAA: -0.19
CAGGGCTC: -0.168
GCTGTAAC: 0.0496
GCACGTGC: 0.147
CTACACCA: -0.243
AGGAAGGG: -0.145
CGACTTGC: 0.0331
CTTTCATC: -0.159
CATGAGCC: -0.191
CAAGTGCG: 0.131
GATCTTTA: -0.00883
AGCGGTTC: 0.0959
GAAATGAA: -0.17
GTGCACGA: -0.194
AATCGCCT: -0.0156
CCATGCTA: -0.103
AAAGTCTC: -0.126

Study 2
Target: Sal-like protein 4, full length isoform A (SALL4, Homo sapiens, UniProt Q9UJQ4, residues 1-1053)
Chain of UniProt Q9UJQ4 (whole entry, looked up): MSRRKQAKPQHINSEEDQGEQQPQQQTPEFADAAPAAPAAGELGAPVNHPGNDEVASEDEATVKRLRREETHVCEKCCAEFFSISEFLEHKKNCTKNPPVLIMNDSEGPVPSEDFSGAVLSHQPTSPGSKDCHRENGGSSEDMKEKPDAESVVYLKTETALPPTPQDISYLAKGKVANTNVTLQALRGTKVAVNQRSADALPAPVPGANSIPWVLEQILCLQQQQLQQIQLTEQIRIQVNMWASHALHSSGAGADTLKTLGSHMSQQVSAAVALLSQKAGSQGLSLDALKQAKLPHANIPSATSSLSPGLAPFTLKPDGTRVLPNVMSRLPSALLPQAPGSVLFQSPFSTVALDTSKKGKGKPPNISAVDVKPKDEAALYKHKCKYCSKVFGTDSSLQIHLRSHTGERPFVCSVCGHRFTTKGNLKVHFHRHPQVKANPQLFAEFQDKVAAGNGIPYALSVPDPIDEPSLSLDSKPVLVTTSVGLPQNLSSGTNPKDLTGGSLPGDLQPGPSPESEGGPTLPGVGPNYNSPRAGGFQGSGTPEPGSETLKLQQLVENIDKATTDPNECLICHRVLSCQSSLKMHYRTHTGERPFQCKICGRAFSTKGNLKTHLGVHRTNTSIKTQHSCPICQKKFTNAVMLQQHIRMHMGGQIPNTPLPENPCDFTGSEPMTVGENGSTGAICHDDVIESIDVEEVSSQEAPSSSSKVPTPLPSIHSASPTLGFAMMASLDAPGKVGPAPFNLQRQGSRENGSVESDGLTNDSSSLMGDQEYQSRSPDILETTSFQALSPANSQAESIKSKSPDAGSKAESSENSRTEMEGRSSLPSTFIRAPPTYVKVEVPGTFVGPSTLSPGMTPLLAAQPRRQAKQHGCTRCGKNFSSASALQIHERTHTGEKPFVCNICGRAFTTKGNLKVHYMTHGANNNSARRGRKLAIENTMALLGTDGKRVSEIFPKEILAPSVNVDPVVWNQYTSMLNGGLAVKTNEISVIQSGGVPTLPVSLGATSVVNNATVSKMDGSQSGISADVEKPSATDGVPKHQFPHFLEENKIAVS
Method: universal PBM
Molecule type: double-stranded DNA, one strand shown
Sample: in vitro
Tested at: 600 nM
Notes: 8-mer, flanks averaged, mean of replicates
Direction: higher = stronger binding
Quantity: E-score
CGCTGATC: -0.154
ATCCAAGC: -0.216
AAAAACAG: 0.169
ATGTTAGC: 0.104
CAGTTGAA: -0.0615
CGCACTAA: -0.012
CCCCTCAG: -0.313
CAGCTATC: -0.0934
CCACGTCA: -0.0444
GCCTCACC: -0.287
ATCCCTGC: -0.0253
CTTCGGGC: -0.278
CTTTCCTA: 0.0377
CAAGTCTC: -0.143
ATTGAGGC: 0.0263
ACCGTTAG: 0.0147
ACCTCAGT: 0.0615
GACGAAAC: -0.078
CAGGGCCA: -0.304
ATCAGCAC: 0.0558
ACCCGTCA: -0.258
CGTAGGAC: -0.249

Study 3
Target: ABI1, truncated, D143A, DHFR fusion (Arabidopsis thaliana)
Method: DHFR PCA, deep sequencing
Sample: yeast
Notes: methotrexate growth selection, single substitutions
Together with: (+)-ABA 0.39 µM
Baseline: wild-type fitted maximum
Direction: higher = stronger binding
Quantity: relative binding score
Starting sequence: PYL1, truncated, DHFR fusion (Arabidopsis thaliana); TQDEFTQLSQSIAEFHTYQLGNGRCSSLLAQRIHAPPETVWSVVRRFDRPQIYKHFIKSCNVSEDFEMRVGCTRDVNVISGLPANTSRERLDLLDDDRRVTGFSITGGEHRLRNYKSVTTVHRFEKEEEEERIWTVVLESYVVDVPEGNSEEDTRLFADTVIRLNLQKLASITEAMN; partner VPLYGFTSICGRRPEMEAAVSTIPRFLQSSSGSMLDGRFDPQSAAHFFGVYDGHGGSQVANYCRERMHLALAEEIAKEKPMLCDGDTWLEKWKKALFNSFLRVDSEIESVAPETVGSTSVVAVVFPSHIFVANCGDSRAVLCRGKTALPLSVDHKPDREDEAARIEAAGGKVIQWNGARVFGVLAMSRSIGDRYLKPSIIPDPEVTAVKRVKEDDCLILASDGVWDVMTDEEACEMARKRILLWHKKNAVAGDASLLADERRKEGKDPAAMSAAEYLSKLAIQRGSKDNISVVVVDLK
V142E: 22.8%
L94D: -16.3%
N114G: 18%
F66G: 32.1%
I12L: 2.02%
I105K: 2.17%
T120P: 0.579%
E14P: -0.801%
E125G: 48.8%
Y141W: -30%
A158R: -5.03%

Study 4
Target: CCND3, cyclin fold, Cln2 fusion (human)
Method: yeast growth competition, sequencing
Sample: yeast
Notes: weak parent motif
Baseline: not given
Direction: higher = stronger binding
Quantity: normalised enrichment score
Starting sequence: SLBP docking peptide (human); ARYKRKLLINDFG
A1E: 0.111
R5A: 0.14
Y3T: 0.117
D11W: 0.0679
I9W: 0.133
I9K: 0.0399
K4Q: 0.0286
I9M: 0.113
R2V: 0.143
I9E: 0.147
I9N: 0.172
N10T: 0.164
I9R: 0.137
I9S: 0.228
D11G: 0.0752

Study 5
Target: RNA binding protein fox-1 homolog 2, RRM domain, GST-SBP tag (RBFOX2, Homo sapiens, UniProt O43251-10, residues 100-194)
Method: RNA Bind-n-Seq
Molecule type: RNA
Sample: in vitro
Tested at: 365 nM
Notes: natural RNA segment, single round, ends assumed
Baseline: no-protein control
Direction: higher = stronger binding
Quantity: RBNS enrichment (R)
Residues (chain): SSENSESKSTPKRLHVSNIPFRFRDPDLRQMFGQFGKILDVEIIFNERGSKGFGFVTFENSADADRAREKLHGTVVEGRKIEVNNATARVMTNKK
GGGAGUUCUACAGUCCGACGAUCGGAGAUGGAGCUUUCUAUGGCCCAAAGGUUGACAUACAGAUUAAAGAUGCGAUUGGGCGGUACCACCAGUGUGCAACCAUCCAGCUGGAUUUCCAGUUGCCCAUCAGAUUUGGAAUUCUCGGGUGCCAA: 0.247
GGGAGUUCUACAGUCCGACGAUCAUCCUGUAAUUCUAGAAUUACCUGGUGUCCUGAUGCAUUUUCCACUAGAGGUUGCUAAUCAGCAUGUUUUAGCCCAAGUCCGCCUUCCUGCUGUGGUUAACCUGUUAUGUUGGAAUUCUCGGGUGCCAA: 9.27
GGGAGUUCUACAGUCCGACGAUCUUUUACAUGAUUGCAUUCCUACAUUCUUGUAAACUUUAAGUAACUACCAUUGCAGUUUGUUCUUUUUUUAAAGUCUAAUUUGCAGCCAAGAACGAGUAAUUCUCACCCCAUGGAAUUCUCGGGUGCCAA: 0.41
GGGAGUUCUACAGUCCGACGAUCCUGUAACUGAGGUUAGGAAAAGAUGUGCCCUUCCUUCCUCCCAGCCUUUCUCCCCUCUGCUUCCUCAUUACUUUUGUCCUCCCUGGGAGCGUUCGCGCUCUGGGUCACUGUGGAAUUCUCGGGUGCCAA: 0.574
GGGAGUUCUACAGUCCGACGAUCGAAAGAAAAUGUAUUAUUGUGUGUAUCAUUUGUGUGCUUUCAUAGCAAAAAAUGUGUUUCAGUUGUACUGUAACCAAAAAUUCUGUCAAUAAAAUAUUUGAGGUUUUCCUUGGAAUUCUCGGGUGCCAA: 0.547
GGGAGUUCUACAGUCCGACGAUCAUGGGCCACCUCUUCCUCCAAGCCCAGAUGCAGAGAUGGUCAUGGGCAGCUGGAGGGUAGGCUCAGAAAUGAAGGGAACCCCUCAGUGGGCUGCUGGACCCAUCUUUCCCUGGAAUUCUCGGGUGCCAA: 0.222
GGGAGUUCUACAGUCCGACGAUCGUUAGUGACAUUUUGCAAGUCUCUACAAAAGCUCUUGCCACAGAAUUCACUGCUGCCCUGACUCUUCACCAUCUUUCUUUAGCAAGGUAUUUUGAGCCAUUAAUGAUUUUUGGAAUUCUCGGGUGCCAA: 0.427
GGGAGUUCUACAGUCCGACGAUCCUUCUAAGAGACAGCUUCCAACAGGAACUCUAGCCAAGAACCACGGCCUACACUCUCCAACACAAUCCAGAGGCCACAACUAGGUCCCACAGCUAAUUUACCCCUGGAGAUGGAAUUCUCGGGUGCCAA: 0.395

A few entries again (study 2):
CGCACTAA: -0.012
CCCCTCAG: -0.313
CAGCTATC: -0.0934
CCACGTCA: -0.0444
GCCTCACC: -0.287
ATCCCTGC: -0.0253
CTTCGGGC: -0.278
CTTTCCTA: 0.0377
CAAGTCTC: -0.143
ATTGAGGC: 0.0263
ACCGTTAG: 0.0147
